{"data": "Measured values collected from several papers", "note": "Parts stem from different laboratories: compare values within a part only.", "sequence of UniProt O14965 (whole entry, looked up)": "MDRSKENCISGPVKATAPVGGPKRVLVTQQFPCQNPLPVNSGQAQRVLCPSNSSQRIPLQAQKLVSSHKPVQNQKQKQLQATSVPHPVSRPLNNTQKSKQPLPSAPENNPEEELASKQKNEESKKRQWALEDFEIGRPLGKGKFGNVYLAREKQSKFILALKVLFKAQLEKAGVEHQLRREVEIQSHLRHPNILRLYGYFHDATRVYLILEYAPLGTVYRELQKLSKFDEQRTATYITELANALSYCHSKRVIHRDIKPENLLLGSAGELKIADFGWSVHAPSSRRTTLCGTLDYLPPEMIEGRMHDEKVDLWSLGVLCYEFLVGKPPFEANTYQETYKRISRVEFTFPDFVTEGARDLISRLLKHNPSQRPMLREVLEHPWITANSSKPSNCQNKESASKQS", "sequence of UniProt P06213 (whole entry, looked up)": "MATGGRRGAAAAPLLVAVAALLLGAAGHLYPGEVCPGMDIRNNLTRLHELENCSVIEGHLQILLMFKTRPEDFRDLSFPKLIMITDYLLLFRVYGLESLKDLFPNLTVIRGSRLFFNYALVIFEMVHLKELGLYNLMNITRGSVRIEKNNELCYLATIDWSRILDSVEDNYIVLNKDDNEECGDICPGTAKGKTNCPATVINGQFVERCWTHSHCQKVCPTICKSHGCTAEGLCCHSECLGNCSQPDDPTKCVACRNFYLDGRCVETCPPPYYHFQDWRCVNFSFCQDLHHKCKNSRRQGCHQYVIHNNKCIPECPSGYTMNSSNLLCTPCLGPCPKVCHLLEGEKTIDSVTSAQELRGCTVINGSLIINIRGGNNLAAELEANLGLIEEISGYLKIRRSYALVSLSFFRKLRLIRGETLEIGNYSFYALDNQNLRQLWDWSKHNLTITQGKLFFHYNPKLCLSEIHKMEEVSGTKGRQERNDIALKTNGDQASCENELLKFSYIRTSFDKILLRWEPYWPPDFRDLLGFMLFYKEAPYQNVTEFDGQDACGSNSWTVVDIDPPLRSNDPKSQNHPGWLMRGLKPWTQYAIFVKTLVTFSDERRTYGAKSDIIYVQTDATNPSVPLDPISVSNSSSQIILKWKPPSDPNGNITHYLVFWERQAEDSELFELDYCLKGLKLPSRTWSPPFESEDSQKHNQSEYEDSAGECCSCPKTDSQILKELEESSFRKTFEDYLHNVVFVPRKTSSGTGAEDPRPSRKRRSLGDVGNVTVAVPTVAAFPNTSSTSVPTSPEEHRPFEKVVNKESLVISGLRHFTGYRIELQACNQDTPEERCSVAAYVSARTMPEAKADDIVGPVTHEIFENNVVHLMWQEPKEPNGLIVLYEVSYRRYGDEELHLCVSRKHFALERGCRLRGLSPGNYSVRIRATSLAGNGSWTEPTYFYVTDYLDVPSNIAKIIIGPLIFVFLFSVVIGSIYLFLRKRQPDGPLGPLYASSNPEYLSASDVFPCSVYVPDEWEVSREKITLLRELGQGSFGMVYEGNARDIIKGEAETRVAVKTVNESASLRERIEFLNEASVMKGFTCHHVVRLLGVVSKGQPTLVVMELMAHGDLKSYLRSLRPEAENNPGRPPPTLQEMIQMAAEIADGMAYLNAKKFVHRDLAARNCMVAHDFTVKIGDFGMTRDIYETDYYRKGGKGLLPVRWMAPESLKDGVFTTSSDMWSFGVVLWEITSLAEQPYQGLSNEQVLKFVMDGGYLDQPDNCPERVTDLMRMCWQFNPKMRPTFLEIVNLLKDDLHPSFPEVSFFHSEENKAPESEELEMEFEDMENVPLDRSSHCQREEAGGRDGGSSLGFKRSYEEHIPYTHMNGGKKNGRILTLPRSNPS", "sequence of UniProt Q02763 (whole entry, looked up)": "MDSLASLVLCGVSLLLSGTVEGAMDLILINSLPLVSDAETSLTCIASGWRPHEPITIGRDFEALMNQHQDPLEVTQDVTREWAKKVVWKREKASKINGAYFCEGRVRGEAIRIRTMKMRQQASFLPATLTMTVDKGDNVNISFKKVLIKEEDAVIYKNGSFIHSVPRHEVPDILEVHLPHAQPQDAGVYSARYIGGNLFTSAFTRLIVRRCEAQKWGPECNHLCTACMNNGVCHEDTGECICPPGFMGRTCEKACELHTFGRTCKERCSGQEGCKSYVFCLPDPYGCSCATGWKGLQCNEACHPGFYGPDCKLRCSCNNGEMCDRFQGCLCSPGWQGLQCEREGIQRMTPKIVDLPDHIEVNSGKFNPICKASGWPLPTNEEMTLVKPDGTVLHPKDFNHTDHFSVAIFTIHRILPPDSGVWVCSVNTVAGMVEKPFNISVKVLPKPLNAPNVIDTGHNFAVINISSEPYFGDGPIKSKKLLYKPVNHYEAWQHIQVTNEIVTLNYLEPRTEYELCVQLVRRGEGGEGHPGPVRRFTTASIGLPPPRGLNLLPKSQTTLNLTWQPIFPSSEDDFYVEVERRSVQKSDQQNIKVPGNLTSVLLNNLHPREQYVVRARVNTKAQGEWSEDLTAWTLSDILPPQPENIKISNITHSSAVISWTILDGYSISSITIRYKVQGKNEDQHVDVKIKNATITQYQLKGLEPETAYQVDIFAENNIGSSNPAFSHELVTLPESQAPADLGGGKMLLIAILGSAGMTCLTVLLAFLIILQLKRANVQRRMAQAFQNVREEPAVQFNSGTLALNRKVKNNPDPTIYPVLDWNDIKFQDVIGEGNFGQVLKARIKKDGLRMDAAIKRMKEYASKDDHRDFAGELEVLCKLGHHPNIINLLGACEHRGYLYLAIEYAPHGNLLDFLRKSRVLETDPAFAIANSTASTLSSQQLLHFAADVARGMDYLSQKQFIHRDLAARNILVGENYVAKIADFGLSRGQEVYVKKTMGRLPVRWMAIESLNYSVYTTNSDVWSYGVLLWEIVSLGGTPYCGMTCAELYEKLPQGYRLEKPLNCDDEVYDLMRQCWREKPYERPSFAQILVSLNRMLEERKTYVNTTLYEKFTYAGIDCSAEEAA", "sequence of UniProt P52333 (whole entry, looked up)": "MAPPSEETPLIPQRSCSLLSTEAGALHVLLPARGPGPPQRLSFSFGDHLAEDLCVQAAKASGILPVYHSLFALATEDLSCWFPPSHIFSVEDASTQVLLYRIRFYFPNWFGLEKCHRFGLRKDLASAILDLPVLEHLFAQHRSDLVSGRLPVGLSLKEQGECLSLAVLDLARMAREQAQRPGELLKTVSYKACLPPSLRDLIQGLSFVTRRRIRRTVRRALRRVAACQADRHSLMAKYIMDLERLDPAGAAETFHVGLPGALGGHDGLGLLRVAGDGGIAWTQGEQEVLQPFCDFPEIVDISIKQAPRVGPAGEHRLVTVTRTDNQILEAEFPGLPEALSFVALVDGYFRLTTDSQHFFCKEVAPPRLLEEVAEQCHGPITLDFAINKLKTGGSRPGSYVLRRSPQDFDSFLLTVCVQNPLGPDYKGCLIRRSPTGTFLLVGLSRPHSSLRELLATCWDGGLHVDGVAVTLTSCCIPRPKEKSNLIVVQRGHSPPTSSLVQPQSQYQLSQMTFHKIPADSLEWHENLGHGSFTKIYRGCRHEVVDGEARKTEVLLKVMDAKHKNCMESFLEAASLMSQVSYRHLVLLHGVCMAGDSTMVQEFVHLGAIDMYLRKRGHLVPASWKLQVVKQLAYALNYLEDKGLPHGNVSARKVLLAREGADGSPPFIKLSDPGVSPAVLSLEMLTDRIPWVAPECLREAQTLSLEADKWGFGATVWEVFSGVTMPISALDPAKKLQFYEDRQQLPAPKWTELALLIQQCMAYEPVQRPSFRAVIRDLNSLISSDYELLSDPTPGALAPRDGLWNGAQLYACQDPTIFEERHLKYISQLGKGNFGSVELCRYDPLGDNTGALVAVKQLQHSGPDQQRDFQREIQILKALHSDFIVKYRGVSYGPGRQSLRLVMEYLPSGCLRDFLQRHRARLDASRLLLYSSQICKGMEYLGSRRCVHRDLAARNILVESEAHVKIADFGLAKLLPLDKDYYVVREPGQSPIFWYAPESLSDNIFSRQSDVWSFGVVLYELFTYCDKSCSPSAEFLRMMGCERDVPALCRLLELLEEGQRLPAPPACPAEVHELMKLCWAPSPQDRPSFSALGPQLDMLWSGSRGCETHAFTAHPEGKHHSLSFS"}
{"data": "Series 1", "target": "Beta-1 adrenergic receptor (ADRB1, Homo sapiens, UniProt P08588)", "action": "antagonist", "sequence of UniProt P08588 (whole entry, looked up)": "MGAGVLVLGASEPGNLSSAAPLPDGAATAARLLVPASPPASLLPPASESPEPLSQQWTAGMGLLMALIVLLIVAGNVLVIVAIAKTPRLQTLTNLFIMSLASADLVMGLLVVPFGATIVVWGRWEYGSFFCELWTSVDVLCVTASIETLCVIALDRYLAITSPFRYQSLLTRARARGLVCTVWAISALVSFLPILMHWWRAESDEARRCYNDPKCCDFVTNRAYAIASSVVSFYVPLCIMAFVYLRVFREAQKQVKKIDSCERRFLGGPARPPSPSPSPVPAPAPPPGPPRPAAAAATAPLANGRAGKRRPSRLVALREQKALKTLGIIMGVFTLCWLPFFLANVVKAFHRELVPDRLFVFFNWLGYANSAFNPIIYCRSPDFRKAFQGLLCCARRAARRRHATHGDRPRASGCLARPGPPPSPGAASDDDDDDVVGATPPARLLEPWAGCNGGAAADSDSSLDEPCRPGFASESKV"}
{"Structure (SMILES)": "O=C(CSc1nc2ccccc2n1CCc1ccccc1)c1ccc(O)c(O)c1", "IC50 [µM]": "≥ 100"}
{"Structure (SMILES)": "COc1ccccc1N1CCN(C(C)C(=O)Nc2ccc(C(N)=O)cc2)CC1 (stereo not drawn)", "IC50 [µM]": "≥ 100"}
{"Structure (SMILES)": "C=C(F)c1sc(CNCCCNc2cc(=O)c3ccccc3[nH]2)c(C)c1Br", "IC50 [µM]": "≥ 100"}
{"Structure (SMILES)": "Cc1nnc2n1CCN(c1nc(-c3ccccc3)c3ccccc3n1)C2", "IC50 [µM]": "≥ 100"}
{"Structure (SMILES)": "CN(C)c1cccc(-c2ncc3c(n2)OCCN(c2ccccc2)C3=O)c1", "IC50 [µM]": "≥ 100"}
{"Structure (SMILES)": "CCN(C)c1ccc(C(=O)N2CCC(c3c[nH]c4ccc(C(N)=O)cc34)CC2)cc1", "IC50 [µM]": "≥ 100"}
{"Structure (SMILES)": "CN(C)c1ccc(-c2nnnn2[C@H]2CO[C@H]3[C@@H]2OC[C@@H]3N[S+](=O)([O-])c2cccc3cccnc23)cc1", "IC50 [µM]": "≥ 100"}
{"Structure (SMILES)": "O=C(Nc1ccccc1)c1cc2c(nc1O)CC(c1ccco1)CC2=O (stereo not drawn)", "IC50 [µM]": "≥ 100"}
{"Structure (SMILES)": "COc1ccccc1N1CCN(CC[C@H]2CN(C(=O)N3CCOCC3)CC[C@H]2CC(=O)O)CC1", "IC50 [µM]": "≥ 100"}
{"Structure (SMILES)": "Cc1nn(C)c(C)c1CN(Cc1ccc2c(C)cc(=O)oc2c1)C1CC1", "IC50 [µM]": "≥ 100"}
{"Structure (SMILES)": "C[n+]1ccc(-c2c3nc(c(-c4cc[n+](C)cc4)c4ccc([nH]4)c(-c4cc[n+](C)cc4)c4nc(c(-c5cc[n+](C)cc5)c5ccc2[nH]5)C=C4)C=C3)cc1", "IC50 [µM]": "≥ 100"}
{"Structure (SMILES)": "N[C@H](C(=O)O)[C@H](O)c1ccc(O)c(O)c1", "IC50 [µM]": 11.2}
{"Structure (SMILES)": "N#C/C(=C\\c1ccc(O)c(O)c1)C(=O)NCCCCc1ccccc1", "IC50 [µM]": "≥ 100"}
{"Structure (SMILES)": "CC(C)NCC(O)c1cc(O)cc(O)c1 (stereo not drawn)", "IC50 [µM]": "≥ 100"}
{"Structure (SMILES)": "Cn1c(=O)n(-c2ccc(N3CCN(C(=O)OC(C)(C)C)CC3)c(C(F)(F)F)c2)c2c3cc(-c4cncc5ccccc45)ccc3ncc21", "IC50 [µM]": "≥ 100"}
{"Structure (SMILES)": "Cc1nn2c(=O)cc(CSc3nnc(-c4ccccc4C)o3)nc2s1", "IC50 [µM]": "≥ 100"}
{"Structure (SMILES)": "O=[S+]([O-])(NCc1cccc2ccccc12)c1cc(Cl)c(Oc2cccc(N3CCNCC3)c2)s1", "IC50 [µM]": "≥ 100"}
{"Structure (SMILES)": "COc1cc2nc(-c3cc4c(c(OC)c3)OCCNC4)cc(C)c2cc1OC", "IC50 [µM]": "≥ 100"}
{"Structure (SMILES)": "N[C@H](Cc1cscn1)C(=O)Nc1cccc(-c2nn3c(=O)cc(N4CCNCC4)nc3s2)c1", "IC50 [µM]": "≥ 100"}
{"Structure (SMILES)": "Cc1cc(C)n(-c2cc(OCC3CCN(c4nc5c(cc4C#N)CCC5)CC3)ncn2)n1", "IC50 [µM]": "≥ 100"}
{"data": "Series 2", "SMILES": "C[C@H](c1ccnc(Nc2nc3ccc(-c4cc(N(C)C)ncn4)cc3[nH]2)c1)N1CCN(C(=O)CC(F)(F)F)CC1", "technique": "competition with immobilised ligand", "tested at": "0.1 µM"}
{"target": "ANKK1 (Homo sapiens, UniProt Q8NFD2)", "assay": "cell-free assay", "remaining binding": "99%"}
{"target": "MAP3K3 (Homo sapiens, UniProt Q99759)", "assay": "cell-free assay", "remaining binding": "100%"}
{"target": "TEK (Homo sapiens, UniProt Q02763)", "assay": "cell-free assay", "remaining binding": "99%"}
{"target": "Aurora kinase A (AURKA, Homo sapiens, UniProt O14965)", "assay": "cell-free assay", "remaining binding": "100%"}
{"target": "IKBKE (Homo sapiens, UniProt Q14164)", "assay": "binding", "remaining binding": "9.9%"}
{"target": "Insulin receptor (INSR, Homo sapiens, UniProt P06213)", "assay": "cell-free assay", "remaining binding": "100%"}
{"target": "Tyrosine-protein kinase JAK3, JH1 (JAK3, Homo sapiens, UniProt P52333)", "assay": "cell-free assay", "remaining binding": "83%"}
{"target": "STK32B (Homo sapiens, UniProt Q9NY57)", "assay": "cell-free assay", "remaining binding": "100%"}
{"target": "IRAK1 (Homo sapiens, UniProt P51617)", "assay": "cell-free assay", "remaining binding": "100%"}
{"target": "MAP3K15 (Homo sapiens, UniProt Q6ZN16)", "assay": "cell-free assay", "remaining binding": "96%"}
{"target": "INSRR (Homo sapiens, UniProt P14616)", "assay": "cell-free assay", "remaining binding": "100%"}
{"target": "TSSK1B (Homo sapiens, UniProt Q9BXA7)", "assay": "cell-free assay", "remaining binding": "100%"}
{"target": "CDK15 (Homo sapiens, UniProt Q96Q40)", "assay": "cell-free assay", "remaining binding": "100%"}
{"target": "DAPK1 (Homo sapiens, UniProt P53355)", "assay": "cell-free assay", "remaining binding": "93%"}
{"target": "SIK2 (Homo sapiens, UniProt Q9H0K1)", "assay": "cell-free assay", "remaining binding": "79%"}
{"data": "Series 3", "target": "Serine/threonine-protein kinase 26 (STK26, Homo sapiens, UniProt Q9P289)", "effect on": "enzyme activity", "action": "inhibitor", "tested at": "0.5 µM", "relative to": "control", "sequence of UniProt Q9P289 (whole entry, looked up)": "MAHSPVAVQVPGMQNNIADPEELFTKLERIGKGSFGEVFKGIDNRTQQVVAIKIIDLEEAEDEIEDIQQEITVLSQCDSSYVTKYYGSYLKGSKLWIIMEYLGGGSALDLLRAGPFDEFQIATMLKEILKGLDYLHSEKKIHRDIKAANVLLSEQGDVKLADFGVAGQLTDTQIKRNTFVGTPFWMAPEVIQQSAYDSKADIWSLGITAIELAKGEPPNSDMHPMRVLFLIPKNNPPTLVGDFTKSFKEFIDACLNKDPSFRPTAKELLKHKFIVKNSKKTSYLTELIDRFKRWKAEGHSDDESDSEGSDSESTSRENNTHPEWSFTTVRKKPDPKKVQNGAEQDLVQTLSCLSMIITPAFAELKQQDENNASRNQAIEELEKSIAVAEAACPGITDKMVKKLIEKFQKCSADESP"}
{"Structure (SMILES)": "NC(=O)c1ccc(N(C(N)=O)c2c(F)cccc2F)nc1-c1ccc(F)cc1F", "remaining activity [%]": 117}
{"Structure (SMILES)": "O=C1NC(=O)C(c2c[nH]c3ccccc23)=C1c1c[nH]c2ccccc12", "remaining activity [%]": 59.2}
{"Structure (SMILES)": "Oc1ccc(Nc2nc(-c3ccc(Cl)cc3)cs2)cc1", "remaining activity [%]": 105}
{"Structure (SMILES)": "Cc1cncc2cccc(S(=O)(=O)N3CCCN(C(=O)CN)C[C@@H]3C)c12", "remaining activity [%]": 107}
{"Structure (SMILES)": "CSc1nc(-c2ccnc(N[C@@H](C)c3ccccc3)c2)c(-c2ccc(F)cc2)[nH]1 (racemic)", "remaining activity [%]": 101}
{"Structure (SMILES)": "COc1ccc(S(=O)(=O)N(CCO)c2ccccc2CN(C)CC=Cc2ccc(Cl)cc2)cc1", "remaining activity [%]": 105}
{"Structure (SMILES)": "CC(=O)c1ccc(N2CCOCC2)cc1O", "remaining activity [%]": 99.5}
{"Structure (SMILES)": "Fc1ccc(-c2nc3n(c2-c2ccncc2)CCS3)cc1", "remaining activity [%]": 109}
{"Structure (SMILES)": "O=C1Cc2c([nH]c3ccc([N+](=O)[O-])cc23)-c2ccccc2N1", "remaining activity [%]": 78.6}
{"Structure (SMILES)": "Cc1cc(Nc2nc(-c3ccccc3)nc3ccccc23)n[nH]1", "remaining activity [%]": 91.2}
{"Structure (SMILES)": "Nc1nc(Nc2ccc(S(N)(=O)=O)cc2)nn1C(=O)c1c(F)cccc1F", "remaining activity [%]": 64.2}
{"data": "Series 4", "cell line": "A-375", "tested at": "100 µM", "time": "18 h"}
{"Compound": "[H]/N=C(/N)N[C@H]1[C@H](O)[C@@H](O)[C@H](O[C@@H]2O[C@@H](C)[C@](O)(C=O)[C@H]2O[C@@H]2O[C@@H](CO)[C@H](O)[C@@H](O)[C@@H]2NC)[C@@H](N/C(N)=N\\[H])[C@@H]1O", "viability": "120%"}
{"Compound": "Cc1cc(C)cc(OCC2CNC(=O)O2)c1 (stereo not drawn)", "viability": "96.4%"}
{"Compound": "CCCCC(C)(O)C/C=C/[C@H]1[C@H](O)CC(=O)[C@@H]1CCCCCCC(=O)OC (mixture of isomers)", "viability": "81.5%"}
{"Compound": "Cc1ccc(NC(=O)c2ccc(CN3CCN(C)CC3)cc2)cc1Nc1nc(-c2cccnc2)cs1", "viability": "12.3%"}
{"Compound": "CCOC(N)=O", "viability": "108%"}
{"Compound": "N=c1ccn2c(n1)O[C@H]1[C@H](O)[C@@H](CO)O[C@H]12", "viability": "73.2%"}
{"Compound": "CC(C(O)c1ccc(O)cc1)N1CCC(Cc2ccccc2)CC1 (stereo not drawn)", "viability": "64.4%"}
{"Compound": "CC(C)(Oc1ccc(Cl)cc1)C(=O)OCCOC(=O)c1cccnc1", "viability": "77.5%"}
{"Compound": "CN(C)CCC(c1ccc(Cl)cc1)c1ccccn1 (stereo not drawn)", "viability": "108%"}
{"Compound": "Cc1cccc(Nc2cc(Cl)nc(SCC(=O)O)n2)c1C", "viability": "111%"}
{"Compound": "N[C@H](Cc1ccccc1)C(=O)O", "viability": "97.7%"}
{"note": "Excerpt of the above (series 1):"}
{"Structure (SMILES)": "C[n+]1ccc(-c2c3nc(c(-c4cc[n+](C)cc4)c4ccc([nH]4)c(-c4cc[n+](C)cc4)c4nc(c(-c5cc[n+](C)cc5)c5ccc2[nH]5)C=C4)C=C3)cc1", "IC50 [µM]": "≥ 100"}
{"Structure (SMILES)": "N[C@H](C(=O)O)[C@H](O)c1ccc(O)c(O)c1", "IC50 [µM]": 11.2}
{"Structure (SMILES)": "N#C/C(=C\\c1ccc(O)c(O)c1)C(=O)NCCCCc1ccccc1", "IC50 [µM]": "≥ 100"}
{"Structure (SMILES)": "CC(C)NCC(O)c1cc(O)cc(O)c1 (stereo not drawn)", "IC50 [µM]": "≥ 100"}
{"Structure (SMILES)": "Cn1c(=O)n(-c2ccc(N3CCN(C(=O)OC(C)(C)C)CC3)c(C(F)(F)F)c2)c2c3cc(-c4cncc5ccccc45)ccc3ncc21", "IC50 [µM]": "≥ 100"}
